{"data": "Published values of several laboratories", "note": "A part holds a random share of what one study measured."}
{"data": "Block 1", "target": "Histone acetyltransferase KAT6A, winged helix 1, GST fusion (KAT6A, Homo sapiens, UniProt Q92794, residues 1-85)", "technique": "protein binding microarray", "form": "double-stranded DNA, one strand shown", "medium": "in vitro", "concentration": "not given", "notes": "8-mer, flanks averaged, mean of 2 arrays, mostly near background", "baseline": "not given", "reading": "higher = stronger binding", "Target sequence (chain)": "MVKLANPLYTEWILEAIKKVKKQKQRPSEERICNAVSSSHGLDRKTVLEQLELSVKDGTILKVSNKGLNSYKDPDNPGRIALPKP"}
{"Strand": "ACACGTAT", "E-score": -0.0813}
{"Strand": "CCGGCGCA", "E-score": 0.45}
{"Strand": "GTACAATA", "E-score": -0.00979}
{"Strand": "CATAAGTC", "E-score": -0.105}
{"Strand": "CACTTTGG", "E-score": -0.0862}
{"Strand": "TGTGAGAA", "E-score": -0.238}
{"Strand": "GAGGTCGC", "E-score": 0.125}
{"Strand": "GTGTATAA", "E-score": -0.0454}
{"Strand": "ACATCACC", "E-score": 0.0569}
{"Strand": "ACTGTTCA", "E-score": -0.0103}
{"data": "Block 2", "target": "Sal-like protein 4, full length isoform A (SALL4, Homo sapiens, UniProt Q9UJQ4, residues 1-1053)", "technique": "universal PBM", "form": "double-stranded DNA, one strand shown", "medium": "in vitro", "concentration": "600 nM", "notes": "8-mer, flanks averaged, mean of replicates", "reading": "higher = stronger binding", "sequence of UniProt Q9UJQ4 (whole entry, looked up)": "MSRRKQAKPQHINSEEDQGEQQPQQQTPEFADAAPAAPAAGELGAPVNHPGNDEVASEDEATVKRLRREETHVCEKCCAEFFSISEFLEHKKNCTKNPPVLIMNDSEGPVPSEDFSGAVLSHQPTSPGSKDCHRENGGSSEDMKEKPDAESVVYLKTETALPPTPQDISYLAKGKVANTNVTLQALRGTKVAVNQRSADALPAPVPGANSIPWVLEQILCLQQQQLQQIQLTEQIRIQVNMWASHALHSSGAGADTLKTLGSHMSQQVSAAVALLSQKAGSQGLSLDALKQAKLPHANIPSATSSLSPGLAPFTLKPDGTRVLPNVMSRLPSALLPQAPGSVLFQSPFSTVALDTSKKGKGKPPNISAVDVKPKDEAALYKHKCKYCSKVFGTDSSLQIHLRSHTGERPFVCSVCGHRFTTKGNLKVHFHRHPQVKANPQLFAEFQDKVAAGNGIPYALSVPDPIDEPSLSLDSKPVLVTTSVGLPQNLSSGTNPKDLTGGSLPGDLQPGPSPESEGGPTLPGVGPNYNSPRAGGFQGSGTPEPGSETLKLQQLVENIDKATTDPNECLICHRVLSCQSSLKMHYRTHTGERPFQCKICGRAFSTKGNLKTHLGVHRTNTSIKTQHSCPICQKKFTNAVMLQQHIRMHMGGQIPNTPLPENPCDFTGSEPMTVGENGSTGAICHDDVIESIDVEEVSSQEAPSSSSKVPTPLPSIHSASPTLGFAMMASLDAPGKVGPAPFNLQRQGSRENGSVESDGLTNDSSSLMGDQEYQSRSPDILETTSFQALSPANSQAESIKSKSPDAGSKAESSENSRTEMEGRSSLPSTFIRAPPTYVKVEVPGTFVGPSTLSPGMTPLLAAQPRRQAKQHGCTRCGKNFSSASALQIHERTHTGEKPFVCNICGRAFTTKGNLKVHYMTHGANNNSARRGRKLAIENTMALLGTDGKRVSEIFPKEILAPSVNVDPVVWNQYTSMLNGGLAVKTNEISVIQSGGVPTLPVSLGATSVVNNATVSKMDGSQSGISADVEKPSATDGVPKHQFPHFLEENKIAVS"}
{"Strand": "CGGTATAG", "E-score": -0.0799}
{"Strand": "CGCATCTC", "E-score": -0.117}
{"Strand": "CGGTGAAG", "E-score": -0.228}
{"Strand": "TGTCCACA", "E-score": 0.151}
{"Strand": "TACCGCCA", "E-score": 0.0006}
{"Strand": "AATGCTGC", "E-score": 0.0786}
{"Strand": "CGCCGTAA", "E-score": -0.227}
{"Strand": "ATAGCGAC", "E-score": 0.0156}
{"Strand": "TGGGATAA", "E-score": 0.137}
{"Strand": "CTATGTGA", "E-score": 0.0794}
{"data": "Block 3", "target": "Interferon regulatory factor 5, full length, phosphomimetic (IRF5, Homo sapiens, UniProt Q13568-2, residues 1-514, S451D/S453D/S456D/S462D)", "technique": "protein-binding microarray", "form": "double-stranded DNA, one strand shown", "medium": "in vitro", "concentration": "940 nM top", "notes": "60-bp whole probe", "with": "salmon DNA 0.4 mg/ml", "baseline": "random background probes", "reading": "higher = stronger binding", "constant ends, left off below": "GCCTAGCAC … GTCTTGATTCGCTTGACGCTGCTG"}
{"Strand": "GACGTTATCGGGTATCGGGACGTGCTA", "fitted relative affinity [z-score]": 1.04}
{"Strand": "GACGGTATCGGATATCGGGACGTGCTA", "fitted relative affinity [z-score]": 3.77}
{"Strand": "TGCTGTCTCAGAGTCCTCTGGTGCTAG", "fitted relative affinity [z-score]": 0.0616}
{"Strand": "GACGGTATCGACTTTGGGGACGTGCTA", "fitted relative affinity [z-score]": 3.92}
{"Strand": "GACGGACTGGTTCTCCTGACGTGCTAG", "fitted relative affinity [z-score]": -0.28}
{"Strand": "ATAGGTATCCTTTTCCTTTAGTGCTAG", "fitted relative affinity [z-score]": 0.859}
{"Strand": "TTGGGACTGGGACTGGGTTAGTGCTAG", "fitted relative affinity [z-score]": -0.245}
{"Strand": "TCATGTCAACTTTCTCTGACTGTGCTA", "fitted relative affinity [z-score]": 0.678}
{"Strand": "GACGGTCCCCTTTTCCTGACGTGCTAG", "fitted relative affinity [z-score]": 0.568}
{"Strand": "TTACGTATCCTTATCCTTTAGTGCTAG", "fitted relative affinity [z-score]": 1.34}
{"data": "Further values, each from its own experiment"}
{"Substance": "PhoQ, residues 284 288 289 292 302 303 DDMDFR", "target": "PhoP, residues 12 14 15 18 19 TPWLV (Escherichia coli, UniProt P23836)", "test": "Sort-seq, measured: YFP reporter", "test system": "E. coli", "conditions": "PhoQ-PhoP variant library, with: 10 µM Mg2+", "how to read": "baseline: high Mg2+ state, higher = stronger signaling", "endpoint": "fold induction", "value": 0.841}
{"note": "Excerpt of the above (block 1):"}
{"Strand": "CATAAGTC", "E-score": -0.105}
{"Strand": "CCGGCGCA", "E-score": 0.45}
{"Strand": "GTACAATA", "E-score": -0.00979}
{"Strand": "ACTGTTCA", "E-score": -0.0103}
{"Strand": "GTGTATAA", "E-score": -0.0454}
